Measured values pooled from the literature.
Each line is one published result; not all experiments were run side by side. ± gives the spread as reported.

SMILES = CC[C@H](C)[C@H](NC(=O)[C@H](CCCCN)NC(=O)[C@H](C)NC(=O)[C@H](CCCNC(=N)N)NC(=O)[C@H](CCCCN)NC(=O)[C@H](CC(N)=O)NC(=O)[C@H](CCC(N)=O)NC(=O)[C@H](Cc1ccccc1)NC(=O)[C@H](Cc1c[nH]c2ccccc12)NC(=O)[C@@H](NC(=O)[C@H](CCCCN)NC(=O)[C@@H](NC(=O)[C@H](CCC(N)=O)NC(=O)[C@H](CO)NC(=O)[C@H](CCCNC(=N)N)NC(=O)[C@@H]1CCCN1C(=O)[C@H](CCCNC(=N)N)NC(=O)[C@H](CCCCN)NC(=O)[C@H](CC(=O)O)NC(=O)[C@H](CCC(=O)O)NC(=O)[C@H](CCCCN)NC(=O)[C@H](CC(N)=O)NC(=O)[C@@H]1CCCN1C(=O)[C@H](CC(N)=O)NC(=O)[C@H](CCCCN)NC(=O)[C@H](CCCCN)NC(=O)[C@H](CCCCN)NC(=O)[C@@H]1CCCN1C(=O)[C@H](CCCCN)NC(=O)[C@H](CCCNC(=N)N)NC(=O)[C@H](CO)NC(=O)[C@H](CCCNC(=N)N)NC(=O)CNC(=O)CNC(=O)CNC(=O)CNC(=O)CNC(=O)CCCC[C@@H]1SC[C@@H]2NC(=O)N[C@@H]21)[C@@H](C)CC)[C@@H](C)CC)C(=O)N[C@@H](CCCCN)C(=O)N[C@@H](CCCCN)C(N)=O; cell line = Caov-3; assay = MALDI-TOF MS; conditions = 7 µM, 1 h, 37 °C; scale = reference: Caov-3 over CHO-K1; endpoint = cellular uptake ratio; value = 2 fold
SMILES = CC(C)=C1CC[C@]23CO[C@H](C2)[C@@](O)(C(=O)O)CC[C@@H]13; cell line = A-375; assay = CellTiter-Glo; conditions = up to 500 µM, 72 h; endpoint = cytotoxicity; value = not toxic
SMILES = CC(C)(O)c1cc2c(ccc3c(=O)cc(-c4ccccc4)oc32)o1; cell line = differentiated SH-SY5Y; assay = MTT; conditions = 0.1 µM; scale = reference: control; endpoint = viability; value = 100 ± 2.5%
SMILES = C[C@H](NC(=O)[C@H](CCCCN)NC(=O)[C@H](CCCCN)NC(=O)[C@H](CCCCN)NC(=O)[C@H](CCCCN)NC(=O)[C@@H](NC(=O)[C@H](C)NC(=O)[C@H](C)NC(=O)[C@H](Cc1ccc(O)cc1)NC(=O)[C@H](C)NC(=O)CNC(=O)CNC(=O)c1ccc2c(c1)C1(OC2=O)c2ccc(O)cc2Oc2cc(O)ccc21)[C@@H](C)O)C(N)=O; cell line = OPM-2; assay = peptidase degradation, capillary electrophoresis; system = cell lysate; conditions = 10 µM, pH 7.6, 37 °C; endpoint = half-life; value = 4 min
SMILES = COc1cc2c(=O)cc(-c3ccccc3)oc2c2c1OC(C)(C)C=C2; cell line = differentiated SH-SY5Y; assay = MTT; conditions = 10 µM; scale = reference: control; endpoint = viability; value = 98.5 ± 2.1%
SMILES = Nc1ncnc2c1c(F)cn2[C@@H]1O[C@H](CO)[C@@H](O)[C@H]1O; cell line = MRC-5 SV2; assay = cytotoxicity, resazurin; system = medium with 5% FBS; conditions = 72 h; endpoint = EC50; value = 0.16 ± 0.03 µM
SMILES = CN(C)C(=O)C1CN1S(=O)(=O)c1ccc(F)cc1F (centres unmarked); cell line = Balb/c 3T3 fibroblasts; assay = cytotoxicity, neutral red uptake; system = DMEM with 5% FBS; conditions = 24 h; endpoint = IC50; value = 15 ± 1 µM
SMILES = COC1(c2ccccc2)CC(=O)c2c(cc3c(c2O)C=CC(C)(C)O3)O1 (centres unmarked); cell line = differentiated SH-SY5Y; assay = MTT; conditions = 10 µM; scale = reference: control; endpoint = viability; value = 99.7 ± 3.5%
SMILES = CN(C)c1ccc(C=Nn2c(-c3ccccc3)nc3ccccc3c2=O)cc1; cell line = MDCK; assay = cell morphology, microscopy; endpoint = minimum cytotoxic concentration; value = 100 µg/mL
SMILES = CCCCn1cc(C(=O)O)c(=O)c2cc(F)c3c(nnn3-c3cccc(Cl)c3)c21; cell line = PANC-1; assay = cell growth or viability, SRB; endpoint = IC50; value = 55.7 µM
SMILES = CC[C@H](C)[C@H](NC(=O)[C@@H](NC(=O)[C@H](CCCNC(=N)N)NC(=O)[C@H](CO)NC(=O)[C@H](CCCCN)NC(=O)[C@H](CC(C)C)NC(=O)[C@H](C)NC(=O)[C@H](CC(=O)O)NC(=O)[C@@H]1CCCN1C(=O)[C@H](CCC(N)=O)NC(=O)[C@@H]1CCCN1C(=O)[C@@H]1CCCN1C(=O)[C@H](CCCNC(=N)N)NC(=O)[C@H](CCCNC(=N)N)NC(=O)[C@H](CCCNC(=N)N)NC(=O)[C@H](CCC(N)=O)NC(=O)[C@H](CCCNC(=N)N)NC(=O)[C@H](CCCNC(=N)N)NC(=O)[C@H](CCCCN)NC(=O)[C@H](CCCCN)NC(=O)[C@H](CCCNC(=N)N)NC(=O)CN)[C@@H](C)O)C(=O)N[C@@H](CCCNC(=N)N)C(=O)O; cell line = HT-22; endpoint = cytotoxic concentration; value = > 100 µM
SMILES = CC(=O)N(O)CCCP(=O)(O)O; cell line = L5178Y TK+/- mouse lymphoma; conditions = 2200 µg/mL, 4 h, with S9; scale = reference: vehicle; endpoint = relative cell count; value = 116%
SMILES = COc1ccc2c(=O)c(OC)c(-c3ccc(OC)c(OC)c3)oc2c1; cell line = differentiated SH-SY5Y; assay = MTT; conditions = 1 µM; scale = reference: control; endpoint = viability; value = 102 ± 4.1%
SMILES = O=C(NC12CC3CC(CC(C3)C1)C2)N1CCCC2=CC3CC(CN4CCCCC34)C21 (centres unmarked); cell line = Huh-7; assay = cytotoxicity; endpoint = CC50; value = > 267 µM

A few entries again:
SMILES = CCCCn1cc(C(=O)O)c(=O)c2cc(F)c3c(nnn3-c3cccc(Cl)c3)c21; cell line = PANC-1; assay = cell growth or viability, SRB; endpoint = IC50; value = 55.7 µM
